Results pooled from the literature.
Compare with care: the assays were run in different laboratories. ± marks the error that the study gave.

COc1cc(CNC(=O)C[C@H](C)CCC=C(C)C)ccc1OCc1cn(-c2cccc(Cl)c2)nn1
growth percent (K562 leukaemia cells; SRB; 10 µM, 48 h): 60.8%

COc1ccc([C@@H]2CC(=O)c3c(O)cc(O[C@@H]4O[C@H](CO[C@@H]5O[C@@H](C)[C@H](O)[C@@H](O)[C@H]5O)[C@@H](O[C@H]5O[C@H](CO)[C@@H](O)[C@H](O)[C@H]5O)[C@H](O)[C@H]4O)cc3O2)cc1O
cell count (A549; trypan blue exclusion; 50 µg/mL, 48 h): 17100 ± 394

Cc1cc(/C=C2\CN(C(C)C)C/C(=C\c3cc(C)c(O)c(C)c3)C2=O)cc(C)c1O
migration rate (HeLa; wound healing; concentration not given, 24 h, serum-free): 28.5 ± 1.92%

COC(=O)[C@H]1[C@H]2C[C@H]3O[C@@]4(CCN3C[C@H]2C[C@@H](OC(=O)c2cc(OC)c(OC)c(OC)c2)[C@@H]1OC)C(=O)Nc1cc(OC)c(-c2ccc(F)cc2)cc14
late apoptotic cells (RS4;11; annexin V/PI flow cytometry; 10 µM, 72 h): 53.7 ± 30.2%

Cc1ccc(C2=Nn3c(N/N=C4/C(=O)Nc5ccc(Br)cc54)nnc3SC2)cc1
number of sensitive cell lines (NCI-60 cell line panel; 10 µM, growth inhibition above 10%): 12

NS(=O)(=O)NCC(F)(F)c1ccccc1F
EC50 (rat hippocampal neurons; neuroprotection, CFDA viability; 4 h, together with: hydrogen peroxide 10 µM): 3 nM

COc1ccc(C2=Nn3c(NN=C4C(=O)N(Cc5ccccc5)c5ccc(Cl)cc54)nnc3SC2)cc1
number of sensitive cell lines (NCI-60 cell line panel; 10 µM, growth inhibition above 10%): 44

CCCCCCCCCCCCCC[C@@H](O)[C@@H](O)[C@H](CO[C@H]1O[C@H](CO)[C@H](O)[C@H](O)[C@H]1O)NC(=O)CCCCCCCCCCc1ccc(OC)cc1
IFN-γ/IL-4 ratio (human Vα24+ NKT cells; concentration not given, HeLa-CD1d co-culture; reference: α-GalCer): 2.19 ± 0.12

CCC(=C(c1ccc(Cl)cc1)c1ccc(OCCCN(C)C)cc1)c1ccc(OC)cc1
GI50 (RPMI-8226; cell growth or viability): 1170 nM

COc1ccc(-c2ocnc2-c2cc(Br)c(OC)c(OC)c2)cc1OCCCC(=O)NO
protein level (HepG2 and Huh-7; western blot, item: GLUT2; concentration not given): no effect

COc1cc2c(OC3OCC(OC)C(OC)C3OC(=O)c3ccc(Br)cc3)c3c(c(-c4ccc5c(c4)OCO5)c2cc1OC)C(=O)OC3 (stereo not drawn)
Bax/Bcl-2 mRNA ratio (FaDu; qRT-PCR; concentration not given, 72 h): increased

O=[N+]([O-])/C(Br)=C/c1ccco1
selectivity index (KB; mean of three Leishmania species; reference: KB CC50 over Leishmania IC50): 8.7

COc1cc(CNC(=O)C[C@H](C)CCC=C(C)C)ccc1OCc1cn(-c2cccc(C(F)(F)F)c2)nn1
growth percent (UACC-62 melanoma cells; SRB; 10 µM, 48 h): 72.1%

Cc1ccc(=O)n(-c2ccc(NC(=O)[C@H](C)N(C)C)cc2)c1
relative potency (NIH3T3; cell proliferation, CCK-8; reference: pirfenidone): 10

C[C@H](CC(=O)C[C@@H](C)[C@H]1C[C@H](O)[C@@]2(C)C3=C(C(=O)C[C@]12C)[C@@]1(C)CCC(=O)C(C)(C)[C@@H]1C[C@@H]3O)C(=O)O
glucose consumption (3T3-L1 adipocytes; 50 µg/mL): 12 ± 0.37 mmol/L

CC(=O)OC[C@H]1O[C@@H](Sc2sc(C(=O)c3ccc(C)cc3)c(N)c2-c2nc3ccccc3s2)[C@H](OC(C)=O)[C@@H](OC(C)=O)[C@@H]1OC(C)=O
growth (MDA-MB-435; SRB; 10 µM, 48 h; reference: untreated): 77.4%

CC(C)=CCc1cc(-c2coc3cc(O)c(CC=C(C)C)c(O)c3c2=O)ccc1O
glucose consumption (3T3-L1 adipocytes; activator; up to 100 µM): inactive

C=C1C(=O)OC2C=C(C)CCC=C(C(=O)OC(C)C(C)(O)C(=O)OC3C(OC(C)=O)C(C(=O)OC)=CCCC(C)=CC4OC(=O)C(=C)C43)CC(OC(=O)C(C)=CC)C12 (stereo not drawn)
caspase-9 activity (HeLa; 3 µM, 24 h; reference: untreated): 4.86 fold

CCCC[C@@H]1NC(=O)[C@@H](NC(=O)[C@H](CCC(=O)O)NC(=O)[C@H](CCC(=O)O)NC(C)=O)CCCCNC(=O)[C@@H](NC(=O)CN2CCN(CC(=O)O)CCN(CC(=O)O)CCN(CC(=O)O)CC2)CCCCNC(=O)[C@H](C(C)C)NC(=O)[C@@H]2CCCN2C(=O)[C@H](CCCNC(=N)N)NC(=O)CNC(=O)[C@H](Cc2c[nH]c3ccccc23)NC(=O)[C@H](CCCNC(=N)N)NC(=O)[C@@H](Cc2ccccc2)NC(=O)[C@H](Cc2c[nH]cn2)NC(=O)[C@H](CCC(=O)O)NC1=O [indium-111 labelled]
cellular uptake (B16/F1; 40 min, 25 °C): 72.5 ± 3.1%

CC(=O)OC[C@H]1O[C@@H](Sc2sc(C(=O)c3ccc(Br)cc3)c(N)c2-c2nc3ccccc3s2)[C@H](OC(C)=O)[C@@H](OC(C)=O)[C@H]1OC(C)=O
growth (MDA-MB-435; SRB; 10 µM, 48 h; reference: untreated): 91.7%

O=C1Nc2ccc(Cl)cc2C1=Cc1c(Cl)[nH]c2c1ccc1ccccc12
TGI (renal cancer subpanel of NCI-60; 48 h): 8510 nM

O=C(OCc1cccc(O)c1O)c1ccc(O)c(CO)c1
other ROS production (HPMEC; DHE HPLC; 5 µM, together with: angiotensin II): no effect

COc1cc(CNC(=O)C[C@H](C)CCC=C(C)C)ccc1O
growth percent (UACC-62 melanoma cells; SRB; 10 µM, 48 h): 81.2%

COC(=O)c1ccc2c(c1)NC(=O)/C2=C(\Nc1ccc(N(C)C(=O)CN2CCN(CCOCCOCCNC(=O)c3cc(OCc4cn(CCCCN5C[C@@H]6C[C@H]5C(=O)N[C@@H](CC(C)C)C(=O)N[C@@H](CCCNC(=N)N)C(=O)NCC(=O)N[C@@H](CC(=O)O)C(=O)N[C@@H](CC(C)C)C(=O)N6)nn4)cc(OCc4cn(CCCCN5C[C@@H]6C[C@H]5C(=O)N[C@@H](CC(C)C)C(=O)N[C@@H](CCCNC(=N)N)C(=O)NCC(=O)N[C@@H](CC(=O)O)C(=O)N[C@@H](CC(C)C)C(=O)N6)nn4)c3)CC2)cc1)c1ccccc1
fluorescence-positive cells (L929; cell internalization, flow cytometry; 5 µM, 24 h): 19%

COc1cc(CNC(=O)C[C@H](C)CCC=C(C)C)ccc1OCc1cn(-c2ccccc2F)nn1
growth percent (UACC-62 melanoma cells; SRB; 10 µM, 48 h): 69.5%

CC(=O)N[C@H](C(=O)N[C@H](C(=O)N[C@@H](CCCNC(=N)N)C(=O)N1Cc2ccccc2C[C@H]1C(=O)N[C@@H](Cc1ccccc1)C(N)=O)C1CCCCC1)C(C)C
cytokine level (MBP-specific BC-3 T cells; Bio-Plex multiplex, item: IL-4; 200 µg/mL, 24 h, together with: MBP87-99 antigen): 2.5 ± 0.9 pg/mL

O=Cc1c(O)ccc2ccccc12
log2 fold change (HUVEC; RNA sequencing, item: CXCL2; 75 µM, 24 h; reference: DMSO): 2.54

COc1ccc([C@@H]2CC(=O)c3c(O)cc(O[C@@H]4O[C@H](CO[C@@H]5O[C@@H](C)[C@H](O)[C@@H](O)[C@H]5O)[C@@H](O)[C@H](O)[C@H]4O)cc3O2)cc1O
cell count (A549; trypan blue exclusion; 150 µg/mL, 48 h): 9170 ± 414

C=CC(=O)Oc1ccc(Cl)cc1C(=O)Nc1ccc([N+](=O)[O-])cc1Cl
cell growth (CWR22Rv1 cells; total cell number; 0.5 µM, 5 days): decreased

CCN(CC)C1CCN(Cc2cc(C#CCNC(=O)OC(C)(C)C)cc(I)c2O)CC1
caspase 3/7 activity (NUGC-4 p53 wild type; 6.25 to 100 µM, 6 h): no effect

COc1ccc(S(=O)(=O)N(CC(=O)O)c2c(C)c(C)c(N(CC(=O)O)S(=O)(=O)c3cccnc3)c(C)c2C)cc1
IL-1β secretion (H9c2; ELISA; 10 µM, together with: LPS 1 µg/mL): decreased

COc1cc(CNC(=O)C[C@H](C)CCC=C(C)C)ccc1OCc1cn(-c2ccc(F)cc2)nn1
growth percent (K562 leukaemia cells; SRB; 10 µM, 48 h): 72.7%

Cc1cc([C@H](C(=O)N2C[C@H](O)C[C@H]2C(=O)N[C@@H](CC(=O)N2CCC(N3CCC(C#Cc4ccc(C(=O)N[C@H]5C(C)(C)[C@H](Oc6ccc(C#N)c(Cl)c6)C5(C)C)cc4)CC3)CC2)c2ccc(-c3scnc3C)cc2)C(C)C)on1
phospho-AKT level (MDA-MB-453; concentration not given, 24 h, together with: 1 nM R1881): decreased

For quick reference, copied from above:
CCCCCCCCCCCCCC[C@@H](O)[C@@H](O)[C@H](CO[C@H]1O[C@H](CO)[C@H](O)[C@H](O)[C@H]1O)NC(=O)CCCCCCCCCCc1ccc(OC)cc1
IFN-γ/IL-4 ratio (human Vα24+ NKT cells; concentration not given, HeLa-CD1d co-culture; reference: α-GalCer): 2.19 ± 0.12

CCC(=C(c1ccc(Cl)cc1)c1ccc(OCCCN(C)C)cc1)c1ccc(OC)cc1
GI50 (RPMI-8226; cell growth or viability): 1170 nM
